Measurements from different studies.
Every numbered part comes from another study and shows a few of its results, in no order. Values joined by “and” are separate records of one study, mostly repeats; a detail may differ.
Chain of UniProt Q13557 (whole entry, looked up): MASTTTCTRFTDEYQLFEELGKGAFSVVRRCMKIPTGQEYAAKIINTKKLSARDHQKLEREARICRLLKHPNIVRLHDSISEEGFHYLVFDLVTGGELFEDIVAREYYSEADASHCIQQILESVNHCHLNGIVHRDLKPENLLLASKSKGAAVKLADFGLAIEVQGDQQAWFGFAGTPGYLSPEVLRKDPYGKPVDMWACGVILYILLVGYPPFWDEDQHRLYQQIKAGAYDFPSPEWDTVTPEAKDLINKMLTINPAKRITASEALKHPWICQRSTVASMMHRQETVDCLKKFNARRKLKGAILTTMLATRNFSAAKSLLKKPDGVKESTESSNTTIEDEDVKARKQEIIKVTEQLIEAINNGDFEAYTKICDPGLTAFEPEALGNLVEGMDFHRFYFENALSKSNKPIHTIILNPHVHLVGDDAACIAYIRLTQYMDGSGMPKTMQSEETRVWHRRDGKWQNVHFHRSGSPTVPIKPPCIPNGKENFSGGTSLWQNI
Chain of UniProt Q9UIK4 (whole entry, looked up): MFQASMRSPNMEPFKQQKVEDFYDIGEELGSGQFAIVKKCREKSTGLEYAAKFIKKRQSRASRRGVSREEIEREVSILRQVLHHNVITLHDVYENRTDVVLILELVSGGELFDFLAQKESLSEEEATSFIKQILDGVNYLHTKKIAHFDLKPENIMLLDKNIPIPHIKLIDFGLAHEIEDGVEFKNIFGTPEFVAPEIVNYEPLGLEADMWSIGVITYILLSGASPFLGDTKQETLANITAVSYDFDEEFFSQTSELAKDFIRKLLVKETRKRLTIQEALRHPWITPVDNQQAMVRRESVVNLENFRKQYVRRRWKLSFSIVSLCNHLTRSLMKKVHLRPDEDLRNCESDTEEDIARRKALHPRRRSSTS
Chain of UniProt O94804 (whole entry, looked up): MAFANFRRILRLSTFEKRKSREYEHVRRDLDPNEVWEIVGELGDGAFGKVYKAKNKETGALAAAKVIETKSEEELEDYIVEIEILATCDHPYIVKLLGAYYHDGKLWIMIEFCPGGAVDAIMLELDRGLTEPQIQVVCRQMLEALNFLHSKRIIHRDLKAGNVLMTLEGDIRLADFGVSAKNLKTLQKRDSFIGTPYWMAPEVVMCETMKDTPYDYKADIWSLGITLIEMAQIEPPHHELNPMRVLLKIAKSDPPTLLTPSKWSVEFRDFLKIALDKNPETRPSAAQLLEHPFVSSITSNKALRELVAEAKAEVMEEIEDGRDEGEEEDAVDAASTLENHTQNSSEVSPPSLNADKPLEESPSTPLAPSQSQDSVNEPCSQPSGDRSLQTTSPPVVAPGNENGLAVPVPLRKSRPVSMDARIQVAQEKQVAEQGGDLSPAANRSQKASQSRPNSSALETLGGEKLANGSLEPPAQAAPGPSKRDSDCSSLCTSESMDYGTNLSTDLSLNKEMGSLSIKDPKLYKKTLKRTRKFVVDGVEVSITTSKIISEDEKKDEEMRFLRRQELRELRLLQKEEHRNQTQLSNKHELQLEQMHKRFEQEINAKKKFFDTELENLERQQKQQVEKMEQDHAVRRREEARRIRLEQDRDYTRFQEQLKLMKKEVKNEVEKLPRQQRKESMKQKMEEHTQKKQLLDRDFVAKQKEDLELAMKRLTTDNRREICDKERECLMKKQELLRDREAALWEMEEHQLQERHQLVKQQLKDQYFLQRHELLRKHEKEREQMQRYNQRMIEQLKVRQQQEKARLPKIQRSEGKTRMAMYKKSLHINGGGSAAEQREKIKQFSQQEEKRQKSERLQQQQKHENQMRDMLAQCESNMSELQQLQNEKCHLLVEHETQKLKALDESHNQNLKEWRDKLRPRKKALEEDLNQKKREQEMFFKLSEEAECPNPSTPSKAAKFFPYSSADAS
Chain of UniProt P35626 (whole entry, looked up): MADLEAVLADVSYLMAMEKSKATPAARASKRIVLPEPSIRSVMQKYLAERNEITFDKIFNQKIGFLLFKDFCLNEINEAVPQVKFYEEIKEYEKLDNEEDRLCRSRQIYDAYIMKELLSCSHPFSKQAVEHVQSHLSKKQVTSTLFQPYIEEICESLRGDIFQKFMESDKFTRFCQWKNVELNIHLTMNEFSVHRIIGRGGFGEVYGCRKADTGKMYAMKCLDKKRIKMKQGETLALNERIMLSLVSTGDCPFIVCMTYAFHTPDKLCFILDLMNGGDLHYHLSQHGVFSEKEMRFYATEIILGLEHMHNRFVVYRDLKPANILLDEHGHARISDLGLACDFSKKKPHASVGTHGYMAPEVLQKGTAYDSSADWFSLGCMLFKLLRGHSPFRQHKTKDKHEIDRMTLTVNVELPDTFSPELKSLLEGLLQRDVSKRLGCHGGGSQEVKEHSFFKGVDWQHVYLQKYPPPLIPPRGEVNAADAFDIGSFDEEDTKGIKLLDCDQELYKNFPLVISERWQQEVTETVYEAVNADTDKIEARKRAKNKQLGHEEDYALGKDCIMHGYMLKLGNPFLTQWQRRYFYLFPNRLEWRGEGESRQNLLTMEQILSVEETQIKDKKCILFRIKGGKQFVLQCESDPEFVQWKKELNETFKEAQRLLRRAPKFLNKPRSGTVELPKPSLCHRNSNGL
Chain of UniProt P07948 (whole entry, looked up): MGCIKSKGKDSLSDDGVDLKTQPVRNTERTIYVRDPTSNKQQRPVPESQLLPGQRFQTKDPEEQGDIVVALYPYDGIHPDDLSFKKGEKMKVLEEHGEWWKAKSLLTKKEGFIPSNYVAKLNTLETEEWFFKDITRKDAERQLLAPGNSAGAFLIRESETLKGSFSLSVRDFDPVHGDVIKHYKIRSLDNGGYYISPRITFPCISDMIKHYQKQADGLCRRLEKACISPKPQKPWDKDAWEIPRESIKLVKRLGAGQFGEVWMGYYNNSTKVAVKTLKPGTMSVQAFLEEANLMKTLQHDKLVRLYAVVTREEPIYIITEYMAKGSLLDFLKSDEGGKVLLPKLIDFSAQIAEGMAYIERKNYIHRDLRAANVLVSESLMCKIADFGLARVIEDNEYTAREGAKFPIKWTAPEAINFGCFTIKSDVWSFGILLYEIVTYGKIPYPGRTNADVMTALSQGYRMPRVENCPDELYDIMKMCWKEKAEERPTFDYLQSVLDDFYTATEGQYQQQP
Chain of UniProt P61075 (whole entry, looked up): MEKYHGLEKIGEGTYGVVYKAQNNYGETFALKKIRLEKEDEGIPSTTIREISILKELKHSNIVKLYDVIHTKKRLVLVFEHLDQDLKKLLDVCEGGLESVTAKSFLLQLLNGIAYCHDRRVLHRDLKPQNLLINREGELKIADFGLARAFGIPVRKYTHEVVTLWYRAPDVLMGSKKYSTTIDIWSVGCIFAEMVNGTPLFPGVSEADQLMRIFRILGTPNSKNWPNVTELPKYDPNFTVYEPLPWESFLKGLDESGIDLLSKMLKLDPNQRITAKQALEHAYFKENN
Chain of UniProt O96017 (whole entry, looked up): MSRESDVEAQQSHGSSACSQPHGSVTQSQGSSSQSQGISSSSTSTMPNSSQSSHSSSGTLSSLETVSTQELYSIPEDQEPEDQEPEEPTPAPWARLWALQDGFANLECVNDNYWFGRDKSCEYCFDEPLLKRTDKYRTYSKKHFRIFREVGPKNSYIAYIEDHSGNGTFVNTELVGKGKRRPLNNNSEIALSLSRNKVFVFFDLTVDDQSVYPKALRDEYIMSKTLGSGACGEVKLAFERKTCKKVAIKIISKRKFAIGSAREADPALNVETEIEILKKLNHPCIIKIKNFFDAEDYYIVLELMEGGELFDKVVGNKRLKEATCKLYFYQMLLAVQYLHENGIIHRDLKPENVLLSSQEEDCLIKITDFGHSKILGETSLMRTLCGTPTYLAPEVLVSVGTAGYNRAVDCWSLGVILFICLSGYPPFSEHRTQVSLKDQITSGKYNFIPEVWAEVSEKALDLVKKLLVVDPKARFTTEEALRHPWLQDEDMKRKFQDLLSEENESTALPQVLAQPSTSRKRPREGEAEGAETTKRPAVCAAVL
Chain of UniProt Q13976 (whole entry, looked up): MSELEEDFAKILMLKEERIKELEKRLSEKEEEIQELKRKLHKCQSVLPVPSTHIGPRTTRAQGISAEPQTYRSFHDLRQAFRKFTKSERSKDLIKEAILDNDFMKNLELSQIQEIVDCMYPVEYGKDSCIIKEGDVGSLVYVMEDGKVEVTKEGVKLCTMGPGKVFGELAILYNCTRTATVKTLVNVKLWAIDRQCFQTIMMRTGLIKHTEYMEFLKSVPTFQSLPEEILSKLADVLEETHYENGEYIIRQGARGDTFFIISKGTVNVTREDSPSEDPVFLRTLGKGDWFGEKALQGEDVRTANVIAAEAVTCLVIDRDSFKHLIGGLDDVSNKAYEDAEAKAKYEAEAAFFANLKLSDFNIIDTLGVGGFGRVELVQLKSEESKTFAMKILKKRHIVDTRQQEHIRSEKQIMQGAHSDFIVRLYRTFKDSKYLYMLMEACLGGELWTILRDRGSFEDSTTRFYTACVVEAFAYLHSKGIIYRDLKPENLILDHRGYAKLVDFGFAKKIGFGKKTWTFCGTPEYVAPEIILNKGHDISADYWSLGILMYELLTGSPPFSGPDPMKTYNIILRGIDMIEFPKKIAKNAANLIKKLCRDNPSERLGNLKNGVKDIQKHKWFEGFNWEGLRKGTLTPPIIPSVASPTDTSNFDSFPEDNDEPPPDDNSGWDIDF

Study 1 — SMILES: COc1ccc2c(c1)/C(=C/c1cnc[nH]1)C(=O)N2; effect on: enzyme activity; action: inhibitor; concentration: 0.5 µM; baseline: control; measurement: remaining activity
target = Protein kinase C alpha type (PRKCA, Homo sapiens, UniProt P17252); value = 91.3%
target = Cyclin-dependent kinase 5, with p25 (CDK5, Homo sapiens, UniProt Q00535); value = 4.52%
target = Serine/threonine-protein kinase 10 (STK10, Homo sapiens, UniProt O94804); value = 67%
target = Death-associated protein kinase 1 (DAPK1, Homo sapiens, UniProt P53355); value = 105%
target = TGF-beta receptor type-2 (TGFBR2, Homo sapiens, UniProt P37173); value = 107%
target = Serine/threonine-protein kinase OSR1 (OXSR1, Homo sapiens, UniProt O95747); value = 97.3%
target = Mitogen-activated protein kinase 9 (MAPK9, Homo sapiens, UniProt P45984); value = 101%
target = Protein kinase C beta type, isoform beta-I (PRKCB, Homo sapiens, UniProt P05771); value = 112%
target = cGMP-dependent protein kinase 1, isoform beta (PRKG1, Homo sapiens, UniProt Q13976); value = 91.7%
target = Inhibitor of nuclear factor kappa-B kinase subunit beta (IKBKB, Homo sapiens, UniProt O14920); value = 94.9%
target = Calcium/calmodulin-dependent protein kinase type II subunit delta (CAMK2D, Homo sapiens, UniProt Q13557); value = 78.8%
target = Tyrosine-protein kinase Lyn, isoform B (LYN, Homo sapiens, UniProt P07948); value = 98.3%
target = STE20/SPS1-related proline-alanine-rich protein kinase (STK39, Homo sapiens, UniProt Q9UEW8); value = 86.1%
target = Serine/threonine-protein kinase Chk2 (CHEK2, Homo sapiens, UniProt O96017); value = 77.9%
target = TGF-beta receptor type-1 (TGFBR1, Homo sapiens, UniProt P36897); value = 98.1%
target = Serine/threonine-protein kinase STK11 (STK11, Homo sapiens, UniProt Q15831); value = 51.7%
target = Mitogen-activated protein kinase kinase kinase 3 (MAP3K3, Homo sapiens, UniProt Q99759); value = 84.2%
target = Death-associated protein kinase 2 (DAPK2, Homo sapiens, UniProt Q9UIK4); value = 97.3%
target = Inhibitor of nuclear factor kappa-B kinase subunit epsilon (IKBKE, Homo sapiens, UniProt Q14164); value = 92.5%
target = cAMP-dependent protein kinase catalytic subunit alpha (PRKACA, Homo sapiens, UniProt P17612); value = 99.9%
target = Cyclin-dependent kinase 4, with cyclin D1 (CDK4, Homo sapiens, UniProt P11802); value = 33.7%
target = G protein-coupled receptor kinase 3 (GRK3, Homo sapiens, UniProt P35626); value = 101%
target = Calcium/calmodulin-dependent protein kinase kinase 2 (CAMKK2, Homo sapiens, UniProt Q96RR4); value = 89.5%

Study 2 — cell line: Huh-7; concentration: 10 µM; time: 24 h; measurement: viability
SMILES = C[C@@H]1O[C@@H](O[C@H]2C[C@@H](O)[C@]3(CO)[C@H]4[C@H](O)C[C@]5(C)[C@@H](C6=CC(=O)OC6)CC[C@]5(O)[C@@H]4CC[C@]3(O)C2)[C@H](O)[C@H](O)[C@H]1O; value = 54.8%
SMILES = CC(C)c1cccc(C(C)C)c1O; value = 97.2%
SMILES = COc1ccc(C(CN(C)C)C2(O)CCCCC2)cc1 (centres unmarked); value = 97.8%
SMILES = C[C@]12CC[C@H]3[C@@H](CCC4=CC(=O)CC[C@@]43C)[C@@H]1CC[C@@H]2O; value = 84.9%

Study 3 — effect on: AlphaScreen signal; method: AlphaScreen counter screen; sample: His6 peptide without bromodomain; concentration: 50 µM; notes: assay interference check; measurement: inhibition
SMILES = C[C@@H]1C[C@H](C)C[C@H](C)[C@@H](O)CC(=O)O[C@H]([C@@H]2CCC[C@H]2C(=O)O)C/C=C/C=C(/C#N)[C@H](O)[C@@H](C)C1; value = -4.25%
SMILES = O=C1Nc2ccccc2C1=Cc1c[nH]cn1; value = 16.4%
SMILES = Cc1cccc(N2C(=O)NC(=O)C(=CNc3ccc(Cl)cc3)C2=O)c1; value = 6.05%
SMILES = CCn1cnc2c(Nc3cccc(Cl)c3)nc(N[C@@H]3CCCC[C@@H]3N)nc21; value = 41%
SMILES = CN1C(=O)NC(=O)C(=CNc2ccc(Cl)cc2)C1=O; value = 6.55%
SMILES = COc1ccc(NC=C2C(=O)NC(=O)N(C)C2=O)cc1; value = 13.2%
SMILES = COc1cccc(N2C(=O)NC(=O)C(=CNc3cccc(Cl)c3)C2=O)c1; value = 9.35%

Study 4 — cell line: mouse MPNST tumor cells; method: high-content immunofluorescence imaging; measured: nuclear SOX9; concentration: 10 µM; time: 12 h; notes: mean of 2 replicates; baseline: DMSO control; direction: higher = more nuclear SOX9; measurement: nuclear SOX9 intensity
SMILES = CN(Cc1cccc(-c2ccccc2)c1)C(=O)Oc1ccc(-c2ccc(C(N)=O)cc2)cc1; value = 101 % of DMSO
SMILES = COc1cc(N)c(Cl)cc1C(=O)NC1CN2CCC1CC2 (centres unmarked); value = 101 % of DMSO
SMILES = CCNC(=O)[C@H]1O[C@@H](n2cnc3c(N)ncnc32)[C@H](O)[C@@H]1O; value = 100 % of DMSO
SMILES = C=C1CC[C@@]2(O)[C@H]3Cc4ccc(O)c5c4[C@@]2(CCN3CC2CC2)[C@H]1O5; value = 103 % of DMSO and 82 % of DMSO

Study 5 — effect on: enzyme activity; action: inhibitor; concentration: 10 µM; measurement: inhibition
Target: Calcium/calmodulin-dependent protein kinase type II subunit alpha (CAMK2A, Homo sapiens, UniProt Q9UQM7)
Chain of UniProt Q9UQM7 (whole entry, looked up): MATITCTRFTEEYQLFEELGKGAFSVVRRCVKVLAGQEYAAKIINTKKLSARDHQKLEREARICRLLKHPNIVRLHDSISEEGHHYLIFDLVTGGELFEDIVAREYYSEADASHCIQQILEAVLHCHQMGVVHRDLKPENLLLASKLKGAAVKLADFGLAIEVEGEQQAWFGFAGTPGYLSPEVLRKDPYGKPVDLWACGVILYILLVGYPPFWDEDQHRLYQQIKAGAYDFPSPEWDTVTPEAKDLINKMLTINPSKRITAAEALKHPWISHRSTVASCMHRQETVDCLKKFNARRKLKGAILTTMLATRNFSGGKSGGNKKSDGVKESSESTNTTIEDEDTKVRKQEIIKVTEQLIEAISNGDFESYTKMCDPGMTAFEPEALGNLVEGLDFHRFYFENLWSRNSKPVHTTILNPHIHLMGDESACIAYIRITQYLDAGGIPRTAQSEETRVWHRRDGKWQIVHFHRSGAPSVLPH
Compound = CN(C)[C@@H]1C(=O)C(C(N)=O)=C(O)[C@@]2(O)C(=O)C3=C(O)c4c(O)cccc4[C@@](C)(O)[C@H]3C[C@@H]12; value = 6%
Compound = N[C@@H](Cn1oc(=O)[nH]c1=O)C(=O)O; value = -21%
Compound = C[C@H]1CC[C@@H]2[C@@H](C)[C@H]3[C@H](C[C@H]4[C@@H]5CC=C6C[C@@H](O[C@@H]7O[C@H](CO)[C@H](O)[C@H](O[C@@H]8O[C@H](CO)[C@@H](O)[C@H](O)[C@H]8O)[C@H]7O[C@@H]7O[C@@H](C)[C@H](O)[C@@H](O)[C@H]7O)CC[C@]6(C)[C@H]5CC[C@]34C)N2C1; value = 25%

Mixed results
SMILES = Cc1cc(NC(=O)c2cccc(S(F)(F)(F)(F)F)c2)cc(-n2ccn3nc(-c4cccnc4)cc23)c1; target or system = sample F normal colon organoid; assay = CellTiter-Glo; conditions = 1 µM, 4 days; how to read = baseline: DMSO; measurement = viability; value = 104%
SMILES = C=CC(=O)N1CCC([C@@H]2CCNc3c(C(N)=O)c(-c4ccc(Oc5ccccc5)cc4)nn32)CC1; target or system = Dual specificity tyrosine-phosphorylation-regulated kinase 1B (DYRK1B, Homo sapiens, UniProt Q9Y463); assay = cell-free assay; conditions = 1 µM; measurement = inhibition; value = 4%
SMILES = COCCOc1nc(-c2ccc(Cl)nc2)nc2c1CN(C(=O)c1ncn3ccccc13)CC2; target or system = Cyclin-dependent kinase 2 homolog (CRK2, Plasmodium falciparum, UniProt P61075); assay = cell-free assay, competition with immobilised ligand; conditions = 0.1 µM; measurement = remaining binding; value = 100%
SMILES = N[C@H]1C[C@@H]1c1ccccc1; target or system = DNA polymerase theta, ATPase domain (POLQ, Homo sapiens, UniProt O75417); assay = inhibitor; conditions = 77 µM; measurement = remaining activity; value = 79.1%
SMILES = CCc1ccccc1C(=O)Nc1n[nH]c2c(C)c(F)c(C3C(C#N)=C(C)N(C)C(C)=C3C#N)cc12; target or system = Calcium-dependent protein kinase 1 (CDPK1, Plasmodium falciparum, UniProt P62344); assay = cell-free assay, competition with immobilised ligand; conditions = 1 µM; measurement = remaining binding; value = 100%
SMILES = O=C(NCc1ncc(C(F)(F)F)cc1Cl)c1ccc2c(c1)C1(CCS(=O)(=O)CC1)[C@@H](C1CC1)N2S(=O)(=O)c1ccc(F)cc1; target or system = SNF-related serine/threonine-protein kinase (SNRK, Homo sapiens, UniProt Q9NRH2); assay = cell-free assay, competition with immobilised ligand; conditions = 1 µM; measurement = remaining binding; value = 96%
